# Measurements of several laboratories.
# Each numbered part is a random draw from the data of one study; scales do not carry over between parts.

# Set 1
# Target: RNA binding protein fox-1 homolog 2, RRM domain, GST-SBP tag (RBFOX2, Homo sapiens, UniProt O43251-10, residues 100-194)
# Technique: RNA Bind-n-Seq
# Form: RNA
# Matrix: in vitro
# Concentration: 365 nM
# Setting: natural RNA segment, single round, ends assumed
# Baseline: no-protein control
# Direction: higher = stronger binding
# Shared flanks, not repeated: GGGAGUUCUACAGUCCGACGAUC … UGGAAUUCUCGGGUGCCAA
Sequence,RBNS enrichment (R)
CAGACAGGAGCCCAGGAAAGCCGCAGAGGAGCUGAAGCAAGGCAGUCCUCACUAAGCUAGAUAAUGUCUGUGACGGAAGUAAGAAAGUCCUCCUCUGGGAUACGGCACUU,0.472
GAAUGUGUUUGAACAUGUUUUGAGAUUUUUUUAAAAUAAAUUAUUAUUUGACAACAAUCCAAAAAAAUACGGCUUUUCCAAUGAUGAAAUAUAAUCAGAAGAUGAAAAAU,0.677
AUAUUUAUGCUGUCUGAAGGUCACGAUCAUGUUACCAUAUCAAGCUGAAAAUGUCACCACUAUCUGGAGAUUUCGACGUGUUUUCCUCUCUGAAUCUGUUAUGAACACGU,0.678
UCUUUGGAGAAUGGGGAGGCCUCUUGGAGACACAGAGGGUUUCACCUUGGAUGACCUCUAGAGAAAUUGCCCAAGAAGCCCACCUUCUGGUCCCAACCUGCAGACCCCAC,0.422
UAUCUAUUAAUAUUUAAGACCAGGAAAAAAAAAAAAGAGGCUUAAGAGUAAGCCUGGAAAAUCUCACUUGUUUUCGUAGUAUUGGCUGUAUUUCAGUGCCUCCAGCUUUG,0.49
UGUGGCUGUGGGGUAUAGCACCCUCACCCUAGCUGCCUGGAAGCCAGUAUCCUGCGAGCAGCCUUCAGAUGAAGAUGCAGAACUCUCACCUUCUCCUGCACCAUGCCUGC,2.94

# Set 2
# Target: Interferon regulatory factor 7, full length, phosphomimetic (IRF7, Homo sapiens, UniProt Q92985, residues 1-503, S101K/S471D/S472D/S475D/S476D/S477D/S483D/S484D/S487D)
# UniProt Q92985, sequence (whole entry, unmodified, looked up): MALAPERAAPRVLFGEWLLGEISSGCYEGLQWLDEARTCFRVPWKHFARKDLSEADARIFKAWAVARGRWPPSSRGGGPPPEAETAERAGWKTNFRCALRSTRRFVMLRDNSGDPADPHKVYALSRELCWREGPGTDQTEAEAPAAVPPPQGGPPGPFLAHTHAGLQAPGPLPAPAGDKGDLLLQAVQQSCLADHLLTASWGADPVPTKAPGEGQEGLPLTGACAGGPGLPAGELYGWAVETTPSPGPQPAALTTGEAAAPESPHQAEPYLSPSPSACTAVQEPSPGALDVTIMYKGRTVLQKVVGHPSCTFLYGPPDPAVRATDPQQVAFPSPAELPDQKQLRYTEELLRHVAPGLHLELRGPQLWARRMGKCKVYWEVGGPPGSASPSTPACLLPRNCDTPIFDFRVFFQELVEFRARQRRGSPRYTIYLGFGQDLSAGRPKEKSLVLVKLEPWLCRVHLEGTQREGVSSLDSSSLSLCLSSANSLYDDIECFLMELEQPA
# Technique: protein-binding microarray
# Form: double-stranded DNA, one strand shown
# Matrix: in vitro
# Concentration: 250 nM
# Setting: 60-bp whole probe
# With: salmon DNA 0.4 mg/ml
# Baseline: random background probes
# Direction: higher = stronger binding
# Shared flanks, not repeated: GCCTAGCAC … GTCTTGATTCGCTTGACGCTGCTG
Sequence,log fluorescence [z-score]
GATGGTTTCCTTATCCTGACGTGCTAG,3.31
TTAGGTATCGGGTTTCGGTGAGTGCTA,2.61
ATTGTTTTCAGTTTCACTGCGTGCTAG,3.06
CTCATTCTCTGTTTATGTCTGTGCTAG,3.13
GACGGTTTCCTTATCATGACGTGCTAG,2.4
GACGGTATCGGGACTGGGTACGTGCTA,-0.203

# Set 3
# Target: Histone acetyltransferase KAT6A, both winged helices, GST fusion (KAT6A, Homo sapiens, UniProt Q92794, residues 1-181)
# Technique: protein binding microarray
# Form: double-stranded DNA, one strand shown
# Matrix: in vitro
# Concentration: not given
# Setting: 8-mer, flanks averaged, mean of 2 arrays, mostly near background
# Baseline: not given
# Direction: higher = stronger binding
# Target sequence (chain): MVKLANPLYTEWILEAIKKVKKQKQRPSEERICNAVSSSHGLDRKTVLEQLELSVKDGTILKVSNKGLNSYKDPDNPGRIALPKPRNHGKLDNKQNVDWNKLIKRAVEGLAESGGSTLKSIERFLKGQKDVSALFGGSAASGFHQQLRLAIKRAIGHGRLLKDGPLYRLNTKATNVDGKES
Sequence,E-score
CGGGAGGC,0.154
CGCTGGAA,0.15
GATGCTGC,-0.0277
AAATCTAA,-0.116
CCTCCATA,-0.0551
CTCTGGGA,-0.112

# Mixed results
Molecule,target,test,system,setting,how to read,quantity,value
"PhoQ, residues 284 288 289 292 302 303 TTSMTC","PhoP, residues 12 14 15 18 19 LHTVM (Escherichia coli, UniProt P23836)","Sort-seq, measured: YFP reporter",E. coli,"PhoQ-PhoP variant library, with: 10 µM Mg2+","baseline: high Mg2+ state, higher = stronger signaling",fold induction,17.4

# Excerpt of the above (set 2):
Sequence,log fluorescence [z-score]
CTCATTCTCTGTTTATGTCTGTGCTAG,3.13
GACGGTTTCCTTATCATGACGTGCTAG,2.4
TTAGGTATCGGGTTTCGGTGAGTGCTA,2.61
